Measurements gathered from unrelated publications.
Protocols differ between the studies behind these lines.

Compound = O=C(N=P12CN3CN(CN(C3)C1)C2)c1cccc[c]1[Pd]([Br])([PH]12CN3CN(CN(C3)C1)C2)[PH]12CN3CN(CN(C3)C1)C2; test system = DMSO-d6; quantity = stability duration; value = > 2 days
Compound = CC[C@H](C)[C@H](NC(=O)[C@H](Cc1c[nH]c2ccccc12)NC(=O)[C@H](CCCNC(=O)c1ccc2c(c1)C1(OC2=O)c2ccc(O)cc2Oc2cc(O)ccc21)NC(=O)CNC(=O)[C@H]1CCCN1C(=O)[C@@H](NC(=O)[C@H](CCCNC(=N)N)NC(=O)[C@@H](NC(=O)[C@H](Cc1c[nH]c2ccccc12)NC(=O)[C@H](CCCN)NC(C)=O)C(C)C)C(C)C)C(=O)N[C@@H](CCCNC(=N)N)C(=O)N[C@@H](CCC(N)=O)C(N)=O; test system = OPM-2 cell lysate; how to read = relative to: compound over unstructured degron peptide; quantity = stability ratio; value = 20 fold
Compound = CC[C@H](C)[C@H](NC(=O)[C@@H]1CCCN1C(=O)[C@H](CCCNC(=N)N)NC(=O)[C@H](CC(=O)O)NC(=O)[C@H](CCCCN)NC(=S)Nc1ccc2c(c1)C(=O)OC21c2ccc(O)cc2Oc2cc(O)ccc21)C(=O)N[C@@H](Cc1ccccc1)C(=O)N[C@@H](CCC(N)=O)C(=O)N[C@@H](CC(C)C)C(=O)N[C@@H](CC(N)=O)C(=O)N[C@H](C(=O)N[C@@H](CO)C(=O)N[C@@H](Cc1ccc(O)cc1)C(=O)N[C@@H](Cc1c[nH]c2ccccc12)C(=O)N[C@@H](CCC(=O)O)C(=O)N[C@@H](CCSC)C(=O)NCC(=O)N[C@@H](C)C(=O)O)[C@@H](C)O; assay = SDS-PAGE; test system = human corneal epithelial lysate; conditions = concentration not given, 2 h; quantity = stability; value = stable
Compound = CC[C@H](C)[C@H](NC(=O)CNC(=O)[C@H](Cc1ccc(O)cc1)NC(=O)[C@H](CO)NC(=O)[C@H](Cc1ccc(O)cc1)NC(=O)[C@@H](NC(=O)[C@H](CC(=O)O)NC(=O)[C@H](CO)NC(=O)[C@H](CCC(N)=O)NC(=O)[C@H](Cc1ccccc1)NC(=O)[C@H](CO)NC(=O)[C@H](Cc1ccccc1)NC(=O)[C@@H]1CCCN1C(=O)[C@H](CC(N)=O)NC(=O)[C@H](CC(N)=O)NC(=O)[C@H](CC(=O)O)NC(=O)[C@H](CCC(N)=O)NC(=O)[C@@H]1CCCN1C(=O)[C@H](CCCNC(=N)N)NC(=O)[C@H](CCCNC(=N)N)NC(=O)[C@H](CCCNC(=N)N)NC(=O)[C@H](CCC(N)=O)NC(=O)[C@H](CCCNC(=N)N)NC(=O)[C@H](CCCNC(=N)N)NC(=O)[C@H](CCCCN)NC(=O)[C@H](CCCCN)NC(=O)[C@H](CCCNC(=N)N)NC(=O)CN)C(C)C)C(=O)N[C@H](C(=O)N[C@@H](CC(C)C)C(N)=O)C(C)C; assay = mass spectrometry; test system = PBS; conditions = 37 °C; quantity = stability time; value = ≥ 4 h
Compound = CC[C@H](C)[C@H](NC(=O)[C@H](CCCNC(=N)N)NC(=O)[C@H](CCCNC(=N)N)NC(=O)[C@H](CC(C)C)NC(=O)[C@H](Cc1ccccc1)NC(=O)CNC(=O)CNC(=O)[C@@H](N)Cc1ccc(OC(C(=O)O)c2ccccc2[N+](=O)[O-])cc1)C(=O)O (stereo partly drawn); conditions = room temperature; quantity = stability in dark; value = > 48 h
Compound = O=C(Oc1nsnc1N1CCOCC1)c1ccccc1; test system = aqueous solution; quantity = stability time; value = ≥ 2 h
Compound = CSCC[C@@H]1NC(=O)[C@H](CCC(=O)O)NC(=O)[C@H](CC(C)C)NC(=O)[C@H](CC(C)C)NC(=O)[C@H](CCCCN)NC(=O)[C@H](CC(=O)O)NC(=O)[C@H](CC(=O)O)NC(=O)[C@H](CC(N)=O)NC(=O)[C@H](CC(=O)O)NC(=O)[C@@H]2CSSC[C@@H]3NC(=O)[C@H]([C@@H](C)O)NC(=O)[C@H](C(C)C)NC(=O)[C@@H]4CCCN4C(=O)[C@H](CSSC[C@H](NC(=O)[C@H](CC(=O)O)NC(=O)[C@H](Cc4ccccc4)NC(=O)[C@H](CC(N)=O)NC(=O)[C@H](CCCCN)NC(=O)[C@H](CCC(=O)O)NC(=O)[C@H](CC(=O)O)NC(=O)[C@H](C)NC(=O)[C@@H](NC(=O)[C@H](Cc4c[nH]cn4)NC(=O)[C@@H](N)CCC(=O)O)CSSC[C@@H](C(N)=O)NC(=O)[C@H](Cc4ccccc4)NC(=O)CNC3=O)C(=O)N[C@@H](CCCNC(=N)N)C(=O)N[C@@H](CCCNC(=N)N)C(=O)N[C@@H](CO)C(=O)N[C@@H](CC(C)C)C(=O)N[C@@H](CCCNC(=N)N)C(=O)N[C@@H](CC(N)=O)C(=O)NCC(=O)N[C@@H](CC(=O)O)C(=O)N2)NC(=O)[C@H](Cc2ccc(O)cc2)NC(=O)[C@H](Cc2ccc(O)cc2)NC(=O)CNC1=O; test system = 100% human serum; conditions = 40 µM, up to 24 h, 37 °C; quantity = stability; value = stable
Compound = O=S([O-])c1ccccc1N=Cc1ccccc1[O-].[Cu+2].c1c[nH]cn1; assay = UV-visible spectroscopy; test system = water; conditions = 0 to 24 h; quantity = stability; value = stable
Compound = [CH3][Ti+2][O]C(=O)c1ccc([S][Au][PH](c2ccccc2)(c2ccccc2)c2ccccc2)cc1.c1cc[cH-]c1.c1cc[cH-]c1; test system = solid in air and CDCl3; conditions = room temperature; quantity = stability time; value = ≥ 120 h
Compound = C1=CCCC=CCC1.C1=CCCC=CCC1.[Cl][Hg-]([Cl])[Cl].[Cl][Hg-]([Cl])[Cl].[Pt+][c]1ccccc1P(=Nc1ccccc1)(c1ccccc1)c1ccccc1.[Pt+][c]1ccccc1P(=Nc1ccccc1)(c1ccccc1)c1ccccc1; assay = UV-vis spectroscopy; test system = DMSO:PBS 1:99; quantity = stability time; value = 24 h
Compound = C[C@@H](O)[C@H](NC(=O)[C@H](CCC(=O)O)NC(=O)[C@H](Cc1ccccc1)NC(=O)[C@H](Cc1c[nH]c2ccccc12)NC(=O)[C@H](CCCCN)NC(=O)[C@H](CCCCN)NC(=O)[C@H](CCCCN)NC(=S)Nc1ccc2c(c1)C(=O)OC21c2ccc(O)cc2Oc2cc(O)ccc21)C(=O)N[C@@H](Cc1c[nH]c2ccccc12)C(=O)N[C@@H](Cc1ccccc1)C(=O)N[C@H](C(=O)N[C@@H](CCC(=O)O)C(=O)N[C@@H](Cc1c[nH]c2ccccc12)C(=O)N1CCC[C@H]1C(=O)N[C@@H](CCCCN)C(=O)N[C@@H](CCCCN)C(=O)N[C@@H](CCCCN)C(=O)N[C@@H](CCCCN)C(=O)O)[C@@H](C)O; assay = SDS-PAGE; test system = human corneal epithelial lysate; conditions = concentration not given, 2 h; quantity = stability; value = stable
Compound = CC[C@H](C)[C@@H]1NC(=O)[C@H]([C@@H](C)O)NC(=O)[C@H](CO)NC(=O)[C@H](CCSC)NC(=O)[C@H](CCCNC(=N)N)NC(=O)[C@@H]2CCCN2C(=O)[C@H](CC(=O)O)NC(=O)CNC(=O)[C@@H]2CSSC[C@@H]3NC(=O)[C@H]([C@@H](C)O)NC(=O)[C@H](CCCCN)NC(=O)[C@@H]4CCCN4C(=O)[C@H](CSSC[C@H](NC(=O)[C@H](C(C)C)NC(=O)[C@H](CC(N)=O)NC(=O)[C@H](CCC(N)=O)NC(=O)[C@@H]4CCCN4C(=O)[C@H]([C@@H](C)CC)NC(=O)[C@H](CCCNC(=N)N)NC(=O)[C@H](CC(=O)O)NC(=O)[C@H](CCCNC(=N)N)NC(=O)[C@@H](N)CSSC[C@@H](C(N)=O)NC(=O)[C@H](CCCCN)NC(=O)CNC3=O)C(=O)N[C@@H](CCC(=O)O)C(=O)N[C@@H](CCC(N)=O)C(=O)N[C@@H](CCSC)C(=O)N[C@@H](CCCCN)C(=O)N[C@@H](CCCCN)C(=O)N[C@@H](CC(N)=O)C(=O)NCC(=O)N[C@@H](CCCCN)C(=O)N2)NC(=O)[C@H](CCC(N)=O)NC(=O)[C@H](CC(C)C)NC(=O)[C@H](CCC(=O)O)NC(=O)[C@H](C)NC1=O; test system = 100% human serum; conditions = 40 µM, up to 24 h, 37 °C; quantity = stability; value = stable
Compound = O=C(N=P12CN3CN(CN(C3)C1)C2)c1ccccn1.[Cl][Pt][Cl]; assay = NMR; test system = DMSO; conditions = room temperature; quantity = stability time; value = > 168 h
Compound = O=C(Oc1nsnc1N1CCOCC1)N1CCOCC1; test system = DMSO; conditions = 5 days; quantity = stability; value = stable
Compound = CC(C)C[C@@H](NC(=O)[C@@H](CCCCN)NC(=O)CNC(=O)CNC(=O)[C@@H]1CSSC[C@H](N)C(=O)NCC(=O)N[C@@H](CCCNC(=N)N)C(=O)N[C@@H](CCCNC(=N)N)C(=O)N[C@@H](C)C(=O)NCC(=O)NCC(=O)N[C@@H](CO)C(=O)N1)C(=O)N[C@H](C)C(=O)N[C@H](CCCCN)C(=O)N[C@H](CC(C)C)C(=O)N[C@H](C)C(=O)N[C@H](CCCCN)C(=O)N[C@H](CCCCN)C(=O)N[C@H](CC(C)C)C(=O)N[C@H](C)C(=O)N[C@H](CCCCN)C(=O)N[C@H](CC(C)C)C(=O)N[C@H](C)C(=O)N[C@H](CCCCN)C(=O)O; assay = mass spectrometry; test system = saline or water; conditions = up to 7 days; quantity = stability; value = stable

A few entries again:
Compound = O=C(Oc1nsnc1N1CCOCC1)c1ccccc1; test system = aqueous solution; quantity = stability time; value = ≥ 2 h
Compound = CSCC[C@@H]1NC(=O)[C@H](CCC(=O)O)NC(=O)[C@H](CC(C)C)NC(=O)[C@H](CC(C)C)NC(=O)[C@H](CCCCN)NC(=O)[C@H](CC(=O)O)NC(=O)[C@H](CC(=O)O)NC(=O)[C@H](CC(N)=O)NC(=O)[C@H](CC(=O)O)NC(=O)[C@@H]2CSSC[C@@H]3NC(=O)[C@H]([C@@H](C)O)NC(=O)[C@H](C(C)C)NC(=O)[C@@H]4CCCN4C(=O)[C@H](CSSC[C@H](NC(=O)[C@H](CC(=O)O)NC(=O)[C@H](Cc4ccccc4)NC(=O)[C@H](CC(N)=O)NC(=O)[C@H](CCCCN)NC(=O)[C@H](CCC(=O)O)NC(=O)[C@H](CC(=O)O)NC(=O)[C@H](C)NC(=O)[C@@H](NC(=O)[C@H](Cc4c[nH]cn4)NC(=O)[C@@H](N)CCC(=O)O)CSSC[C@@H](C(N)=O)NC(=O)[C@H](Cc4ccccc4)NC(=O)CNC3=O)C(=O)N[C@@H](CCCNC(=N)N)C(=O)N[C@@H](CCCNC(=N)N)C(=O)N[C@@H](CO)C(=O)N[C@@H](CC(C)C)C(=O)N[C@@H](CCCNC(=N)N)C(=O)N[C@@H](CC(N)=O)C(=O)NCC(=O)N[C@@H](CC(=O)O)C(=O)N2)NC(=O)[C@H](Cc2ccc(O)cc2)NC(=O)[C@H](Cc2ccc(O)cc2)NC(=O)CNC1=O; test system = 100% human serum; conditions = 40 µM, up to 24 h, 37 °C; quantity = stability; value = stable
